Measurements pooled from the literature.
Compare with care: the assays were run in different laboratories. ± marks the error that the study gave.

Compound = COc1cccc(C2(O)CCCCC2CN(C)C)c1 (centres unmarked); assay = joint PK model; test system = human, whole blood; conditions = oral, dose not given, one-compartment metabolite model; quantity = central volume; result = 0.432 L
Compound = COc1cc2c(Oc3ccc4[nH]c(C)cc4c3F)ccnc2cc1OCC1(N)CC1; test system = paediatric refractory sarcoma patients; conditions = 8 mg; quantity = influenza-like illness incidence; result = 0%
Compound = Cc1ncc2n1-c1ccc(Cl)cc1C(c1ccccc1F)=NC2; test system = wild-type mice, plasma; conditions = intravenous, 0.3 mg/kg, added: 3-day vehicle; quantity = AUC(0-inf); result = 0.0382 ± 0.00173 µM·h
Compound = CCCCCn1cc(C(=O)Nc2cccc3ccccc23)c2ccccc21; test system = human liver microsomes; conditions = scaled to whole liver; quantity = scaled intrinsic clearance; result = 350 mL/min/kg
Compound = C=C1C[C@H]2[C@@H]3CC[C@H](O[C@@H]4O[C@H](C(=O)O)[C@@H](O)[C@H](O)[C@H]4O)[C@@]3(C)CC[C@@H]2[C@@]2(C)C=CC(=O)C=C12; test system = human, postmenopausal women, serum; conditions = dose not given, GSTA1 genotype effect; quantity = serum level; result = no effect
Compound = CCCCCCCCCCC(=O)O[C@H]1CC[C@H]2[C@H]3[C@H]([C@@H](C)C[C@]12C)[C@H]1CCC(=O)C=C1C[C@H]3C; test system = human serum; conditions = 300 ng/mL, NaF 50.0 mg/mL; quantity = DMA level; result = not detected
Compound = CCN(CC)C(=O)[C@@H]1C=C2c3cccc4[nH]cc(c34)C[C@H]2N(C)C1; assay = item: fear of death; test system = healthy volunteers; conditions = dose not given, 12 to 24 h; how to read = relative to: placebo, direction not given; quantity = List of Complaints score; result = 0
Compound = O=C1c2c(O)c(=O)ccn2N([C@@H]2c3ccccc3SCc3c2ccc(F)c3F)[C@@H]2COCCN12; test system = BALB/c mice, plasma; conditions = oral, 1.5 mg/kg baloxavir marboxil, 8 h; quantity = plasma concentration; result = 3.35 ng/mL
Compound = CN/C(=N\[N+](=O)[O-])NCc1cnc(Cl)s1; test system = soil; conditions = 56 days, nominal 0.37; quantity = concentration; result = 0.2 mg/kg dry soil
Compound = O=C(O)CCCO; test system = male Sprague-Dawley rat; conditions = intravenous, 600 mg/kg daily, day 1, acute; quantity = respiratory frequency area below curve; result = 4760 breaths
Compound = C#Cc1ccc2c(c1)C(c1ccccn1)=NCc1c(-c3cnco3)ncn1-2.Cl; assay = shake flask; test system = 50 mM phosphate buffer; conditions = 24 h, pH 5, 25 °C; quantity = solubility; result = 3300 µg/mL

Excerpt of the above:
Compound = O=C(O)CCCO; test system = male Sprague-Dawley rat; conditions = intravenous, 600 mg/kg daily, day 1, acute; quantity = respiratory frequency area below curve; result = 4760 breaths
Compound = COc1cc2c(Oc3ccc4[nH]c(C)cc4c3F)ccnc2cc1OCC1(N)CC1; test system = paediatric refractory sarcoma patients; conditions = 8 mg; quantity = influenza-like illness incidence; result = 0%
